Measured values gathered from unrelated publications.
Compare with care: the assays were run in different laboratories.
Organism: Staphylococcus aureus

CN(C)CCCNC(=O)[C@@H]1NC(=O)[C@@H]2Cc3ccc(cc3)Oc3cc4cc(c3O)-c3ccc5c(c[nH]c5c3)C[C@@H](NC(=O)C(NC(=O)CCCCCN)c3ccc(O)cc3)C(=O)N[C@H](c3ccc(O)cc3)C(=O)N[C@H]4C(=O)N[C@@H](C(=O)N2C)c2ccc(cc2)Oc2cc1ccc2O (some centres unmarked) — MIC (ATCC 33591 MRSA, Mueller-Hinton broth): 8 to 16 µg/mL
CC[C@H](C)[C@H](NC(=O)CNC(=O)[C@H](CCCCN)NC(=O)[C@H](C)NC(=O)[C@H](CCC(=O)O)NC(=O)[C@H](Cc1ccccc1)NC(=O)[C@H](CO)NC(=O)[C@H](CC(C)C)NC(=O)[C@@H](NC(=O)[C@H](CC(=O)O)NC(=O)[C@H](C)NC(=O)[C@@H](NC(=O)[C@@H](N)C(C)C)[C@@H](C)O)C(C)C)C(=O)N[C@@H](C)C(=O)N[C@H](C(=O)N[C@@H](CC(N)=O)C(=O)N[C@@H](Cc1c[nH]cn1)C(=O)N[C@@H](CO)C(=O)N[C@@H](C)C(=O)N[C@H]1CSSC[C@@H]2NC(=O)[C@H](C(C)C)NC(=O)CNC(=O)[C@H](CC(N)=O)NC(=O)[C@H](CCC(N)=O)NC(=O)[C@H](C)NC(=O)[C@H](CO)NC(=O)CNC(=O)CNC(=O)[C@H](CCCCN)NC(=O)[C@H](CCCCN)NC(=O)[C@H](CCCNC(=N)N)NC(=O)[C@H](CC(C)C)NC(=O)[C@H](C)NC(=O)[C@H]([C@@H](C)CC)NC(=O)[C@H](CSSC[C@@H](C(=O)N[C@@H](CCCNC(=N)N)C(=O)N[C@@H](CC(N)=O)C(=O)O)NC(=O)[C@H](C(C)C)NC2=O)NC(=O)[C@H](Cc2c[nH]cn2)NC(=O)[C@H](CC(C)C)NC(=O)[C@H](C)NC1=O)C(C)C — MIC (broth microdilution; KCTC 1621; 16 h, 37 °C): > 100 µM
CCCCCCCCCCCCCCCCCCSCC1OC(OC2C(N)CC(N)C(OC3OC(CN)C(O)CC3N)C2O)C(O)C(N)C1O (centres unmarked) — MIC (NorA): > 150 µg/mL
O=C(O)c1ccc(-n2cc(/C=N/Nc3ccc([N+](=O)[O-])cc3)c(-c3cccc(F)c3)n2)cc1 — MIC (microbial growth; ATCC33592; drug-resistant strain): 0.78 µg/mL
CC[C@@H](C)[C@H]1NC(=O)[C@H]([C@@H](C)CC)NC(=O)[C@@H](CCCN)NC(=O)[C@@H](NC(=O)[C@@H](NC(=O)[C@@H](CCC(=O)O)NC(=O)[C@H](CC(C)C)NC(=O)[C@@H]2CSC([C@@H](N)[C@@H](C)CC)=N2)[C@@H](C)CC)CCCCNC(=O)[C@H](CC(N)=O)NC(=O)[C@@H](CC(=O)O)NC(=O)[C@H](Cc2c[nH]cn2)NC1=O — MIC (broth microdilution; ATCC 29213, LB medium; 18 h, 37 °C, with: ZnSO4 0.3 mM): 4 µg/mL
CCC[C@@H]1NC(=O)[C@@H]([C@@H](C)O)NC(=O)CNC(=O)[C@H](CC(=O)O)NC(=O)CNC(=O)[C@H](CC(=O)O)NC(=O)CNC(=O)[C@H]2CCCCN2C(=O)[C@@H](NC(=O)[C@H](CC(=O)O)NC(=O)/C=C/CCCCCCCCCC(C)C)CNC(=O)[C@@H]2CCCN2C1=O — MIC (MRSA USA300; with: Ca2+ 10 mM): 4 µg/mL
CC(=O)OCc1cc(-c2nc3ccccc3n(-c3ccc([N+](=O)[O-])cc3[N+](=O)[O-])c2=O)nn1-c1ccccc1 — MIC (microbial growth; ATCC25923): > 500 µg/mL
NC(=O)c1c(F)ccc(OCc2nc3cc(Cl)cnc3s2)c1F — MIC (microbial growth; ATCC29247; drug-resistant strain, clinical isolate): 1 µg/mL
CC[C@H](C)[C@H](NC(=O)[C@@H](NC(=O)CN)C(C)C)C(=O)N[C@@H](Cc1ccccc1)C(=O)N[C@@H](CC(N)=O)C(=O)N[C@@H](C)C(=O)N[C@@H](CC(C)C)C(=O)N[C@@H](CCCCN)C(=O)NCC(=O)N[C@H](C(=O)N[C@@H](C)C(=O)N[C@@H](CCCCN)C(=O)N[C@H](C(=O)N[C@H](C(=O)N[C@@H](C)C(=O)N[C@@H](C)C(=O)N[C@@H](CCC(N)=O)C(=O)N[C@@H](CC(C)C)C(=O)N[C@@H](CC(C)C)C(=O)N[C@@H](CCCCN)C(=O)N[C@@H](CCCCN)C(=O)N[C@@H](C)C(=O)N[C@@H](CCCNC(=N)N)C(=O)N[C@H]1CSSC[C@@H](C(=O)O)NC(=O)[C@H](CO)NC(=O)[C@H](CCCCN)NC(=O)[C@H](CC(=O)O)NC(=O)[C@H](CC(C)C)NC(=O)[C@H](CCCCN)NC1=O)C(C)C)[C@@H](C)O)C(C)C — MIC (NCTC 10788, PBS): 2 µM
Oc1ccccc1C1Nc2ccccc2C2=[O+][Cu-2]3([Cl])[O]c4ccccc4C=[N+]3N21 (centres unmarked) — MIC (broth microdilution; MRSA clinical isolate SA 630; 24 h, 37 °C): 8 µg/mL
CC(C)C[C@H](NC(=O)CN)C(=O)N[C@@H](CC(C)C)C(=O)N[C@@H](CCCCN)C(=O)N[C@@H](CC(C)C)C(=O)N[C@@H](CC(C)C)C(=O)N[C@@H](CCCCN)C(=O)N[C@@H](CCCCN)C(=O)N[C@@H](CC(C)C)C(=O)N[C@@H](CC(C)C)C(=O)N[C@@H](CCCCN)C(=O)N[C@@H](CC(C)C)C(=O)N[C@@H](CC(C)C)C(=O)N[C@@H](CCCCN)C(N)=O — MIC (SH1000 GFP-expressing, nutrient broth; 20 h, 37 °C): 33 µM
CN[C@@H]1[C@H](O)[C@H](NC)[C@H]2O[C@]3(O)[C@H](O[C@@H]2[C@H]1O)O[C@H](C)C[C@@]3(O)CNCc1ccc(OC(F)(F)F)cc1 — MIC (MSSA ATCC 29213): 100 µg/mL
CC(C)[C@@H]1NC(=O)[C@@H]2CCCN2C(=O)[C@@H](C)NC(=O)[C@H](CO)NC(=O)[C@H](C)NC(=O)[C@H](C(C)(C)C)NC(=O)[C@H](CCO)NC(=O)[C@H](Cc2c[nH]c3ccccc23)NC(=O)[C@H](CCO)NC(=O)[C@@H](CCN)NC(=O)[C@H](CCC(N)=O)NC(=O)[C@H](CCN)NC(=O)[C@H](Cc2ccc(O)cc2)NC(=O)[C@H]([C@@H](C)O)NC1=O — MIC (broth microdilution; MRSA USA300, CAMHB with polysorbate-80; 16 h): > 64 µg/mL
C/C(=N/NC(=N)N)c1nnn(-c2ccc(C#Cc3ccsc3)cc2)c1C — MIC (broth microdilution; MRSA USA300 NRS384): 16 µg/mL
N#CC1COC(=O)N1/N=C/c1ccc([N+](=O)[O-])o1 (centres unmarked) — MIC (microbial growth, broth dilution; ATCC29213; 18 h): 12.5 µg/mL
CN[C@H](CC(C)C)C(=O)N[C@H]1C(=O)N[C@@H](CC(N)=O)C(=O)N[C@H]2C(=O)N[C@H]3C(=O)N[C@H](C(=O)N[C@H](C(=O)O)c4cc(O)cc(O)c4-c4cc3ccc4O)[C@H](O)c3ccc(c(Cl)c3)Oc3cc2cc(c3O[C@@H]2O[C@H](CO)[C@@H](O)[C@H](O)[C@H]2O[C@H]2C[C@](C)(NCc3ccc(C(=O)OCCCCCCN(Cc4ccccn4)Cc4ccccn4)cc3)[C@H](O)[C@H](C)O2)Oc2ccc(cc2Cl)[C@H]1O — MIC (microbial growth, broth dilution; ATCC33591 MRSA; drug-resistant strain): 0.8 µM
COc1ccc2ccc3c(c2c1)C=[N+]1C2CCCCC2[N+]2=Cc4c(F)cccc4[O][Au-]21[O]3.F[P-](F)(F)(F)(F)F (centres unmarked) — MIC (bacterial growth, broth microdilution; vancomycin-intermediate; 24 h): > 20 µM
NCCCC[C@@H]1NC(=O)[C@@H](CCCCN)NC(=O)[C@H](CCCCN)NC(=O)[C@@H](CCCCN)NC(=O)[C@H](Cc2c[nH]c3ccccc23)NC(=O)[C@@H](Cc2c[nH]c3ccccc23)NC(=O)[C@@H](N)CSCc2ccc(cc2)CSC[C@@H](C(N)=O)NC(=O)[C@@H](Cc2c[nH]c3ccccc23)NC(=O)[C@H](Cc2c[nH]c3ccccc23)NC(=O)[C@@H](CCCCN)NC1=O — MIC (COL MRSA): 16 to 32 µg/mL
CC(C)C[C@@H]1NC(=O)[C@H](C)NC(=O)[C@@H]2NC(=O)[C@H](CO)NC(=O)[C@@H](CCCCN)NC(=O)[C@H](NC(=O)[C@@H](N)Cc3ccccc3)CCCCCCCC[C@H](NC1=O)C(=O)O[C@H]2C — MIC (MRSA ATCC 700698; TFA salt): 16 µg/mL
CCn1cc(C(=O)NCCCCCC(=O)N[C@@H](CCCNC(=N)N)C(=O)N[C@@H](Cc2c[nH]c3ccccc23)C(=O)N[C@@H](CCC(N)=O)C(=O)N[C@@H](Cc2c[nH]c3ccccc23)C(=O)N[C@@H](CCCNC(=N)N)C(=O)N[C@@H](Cc2c[nH]c3ccccc23)C(=O)N[C@@H](CCC(N)=O)C(=O)N[C@@H](Cc2c[nH]c3ccccc23)C(=O)N[C@@H](CCCNC(=N)N)C(N)=O)c(=O)c2cc3c(cc21)OCO3 — MIC (broth microdilution; ATCC 25923; 24 h, 37 °C): 54 µM

For quick reference, copied from above:
Oc1ccccc1C1Nc2ccccc2C2=[O+][Cu-2]3([Cl])[O]c4ccccc4C=[N+]3N21 (centres unmarked) — MIC (broth microdilution; MRSA clinical isolate SA 630; 24 h, 37 °C): 8 µg/mL
CN[C@@H]1[C@H](O)[C@H](NC)[C@H]2O[C@]3(O)[C@H](O[C@@H]2[C@H]1O)O[C@H](C)C[C@@]3(O)CNCc1ccc(OC(F)(F)F)cc1 — MIC (MSSA ATCC 29213): 100 µg/mL
NC(=O)c1c(F)ccc(OCc2nc3cc(Cl)cnc3s2)c1F — MIC (microbial growth; ATCC29247; drug-resistant strain, clinical isolate): 1 µg/mL
